Assay results of several laboratories.
Lines come from different studies, so protocols differ. ± marks the error that the study gave.

SMILES	cell line	test	system	conditions	how to read	measurement	result
Nc1cc(C(F)(F)F)c(-c2nc(N3CCOCC3)nc(N3CCOCC3)n2)cn1	HD-MB03	cell growth		168 h, DMSO		IC50	701 nM
CCn1cc(-c2cc(Cn3ccoc3=N)cc3c2CCN([C@@H](C)c2cc(OC)ccn2)C3=O)c(C(F)(F)F)n1	SCC-9	cell growth, inhibitor		120 h		EC50	172 nM
CC(C)C[C@H](NC(=O)N1CCCCCC1)C(=O)N[C@H](Cc1cn(C)c2ccccc12)C(=O)N[C@H](Cc1ccc(O)cc1)C(=O)O	NIH/3T3 cells	binding, antagonist, radioligand binding				Kd	0.114 nM
CO[C@H]1C(=O)[C@]2(C)[C@@H](OC)C[C@H]3OC[C@@]3(OC(C)=O)[C@H]2[C@H](OC(=O)c2ccccc2)[C@]2(O)C[C@H](OC(=O)[C@H](O)[C@@H](NC(=O)OC(C)(C)C)c3ccccc3)C(C)=C1C2(C)C	HD-MB03	cell growth		168 h, DMSO		IC50	6.61 nM
Cn1c(Nc2nc3ccc(C(F)(F)F)cc3s2)nc2cc(C(=O)NCCOCCO)ccc21	SH-SY5Y	RNA-seq, measured: VCL mRNA		5 µM, 5 h	baseline: untreated cells	fold change	1.58
CCn1cc(-c2cc(Cn3ccnc3)cc3c2CCN([C@H](c2cc(OC)ccn2)C2CC2)C3=O)c(C(F)(F)F)n1	HEC-1B	cell growth, inhibitor		120 h		EC50	3680 nM
Cn1cc(-c2ccc(-c3cncc(Cl)c3N3CCC4(CCNC4=O)CC3)cc2)cn1	COLO 205	gene expression, microarray, measured: CABLES1 mRNA		concentration not given, 2 h	baseline: untreated cells	log2 fold change	2.49
CC(C)(c1ccc(O)cc1)c1ccc(O)cc1	HepG2 spheroids	Hoechst flow cytometry		0.01 µM, 96 h		G1 phase cells	81.7 ± 3.56%
Nc1cccc2c1CN(C1CCC(=O)NC1=O)C2=O (stereo not drawn)	bone marrow CD138+ myeloma cells	XTT		0.8 µM, phenol red-free RPMI		viability	110%
COc1cnc2cccc(N3CCc4c(cc(Cn5ccnc5C)cc4-c4cn(C)nc4C(F)(F)F)C3=O)c2c1	LCLC-97TM1	cell growth, inhibitor		120 h		EC50	> 30000 nM
Nc1ccccc1NC(=O)c1ccc(CNc2nccc(-c3cccnc3)n2)cc1	HD-MB03	cell growth		168 h, DMSO		IC50	324 nM
CC(=O)N1CCCC(N2C(=O)c3cccc(N)c3C2=O)C1 (stereo not drawn)	RAW 264.7	measured: nitrite		30 µM, together with: LPS		inhibition	19%
CC/C(=N\NC(=O)NCc1cccc(O)c1)c1ccc(O)c(C)c1O	SK-OV-3	Western blot	3D culture in gellan gum	10 µM, 24 h, unit not given	baseline: β-actin	LATS protein level	0.6 ± 0.13
Cc1occc(=O)c1O	primary rat hippocampal/cortical neuron-glia cultures			1 µM, together with: 1 µM α-synuclein oligomers		reversal of trafficking deficit	-9.62%
O=C(C[C@@H](C(F)F)n1ccc(F)n1)N1CCC(O)(Cn2cnc3c(cnn3-c3ccc(F)cc3)c2=O)CC1	CHP-212 resistant	PI flow cytometry		0.1 µM, 24 h		G1 phase cells	72.7%
COc1cc(Nc2c(C#N)cnc3cc(OCCCN4CCN(C)CC4)c(OC)cc23)c(Cl)cc1Cl	HD-MB03	cell growth		168 h, single agent		IC50	3210 nM
O=C(/C=C/C=C/C=C/C1CCCCC1)NC1=C[C@@](O)(/C=C/C=C/C=C/C(=O)NC2=C(O)CCC2=O)[C@@H]2O[C@@H]2C1=O	SUIT-2	cell growth, CellTiter-Glo		78 h		GI50	21400 nM
O=C1c2ccncc2C(=O)c2c1[nH]c1ccccc21	pulmonary arterial smooth muscle cells, PAH patient	increased		concentration not given		phospho-Drp1 (Ser637) level	increased
COc1cc(/C=C/C(=O)N2CCC=CC2=O)cc(OC)c1OC	MDA-MB-468	qRT-PCR, measured: PDK1		30 µM, 6 h	baseline: time zero	mRNA level	93.4 ± 13.2%
Cc1c(C)c2c(c(C)c1O)CCC(C)(COc1ccc(CC3SC(=O)NC3=O)cc1)O2 (stereo not drawn)	iPSC-derived hepatocytes B3	cell viability		24 h, differentiation day 23		IC50	40000 nM
Cc1cnc(NC2CCOCC2)nc1-n1cnc(C(=O)NC(CN)c2cc(F)cc(Cl)c2)c1 (stereo not drawn)	A-375	flow cytometry		1 µM, 72 h		G2 phase cells	1%

For quick reference, copied from above:
SMILES	cell line	test	system	conditions	how to read	measurement	result
CO[C@H]1C(=O)[C@]2(C)[C@@H](OC)C[C@H]3OC[C@@]3(OC(C)=O)[C@H]2[C@H](OC(=O)c2ccccc2)[C@]2(O)C[C@H](OC(=O)[C@H](O)[C@@H](NC(=O)OC(C)(C)C)c3ccccc3)C(C)=C1C2(C)C	HD-MB03	cell growth		168 h, DMSO		IC50	6.61 nM
